Measurements pooled from the literature.
Protocols differ between the studies behind these lines. “And” joins repeats or separate records; there may be more than shown. ± marks the error that the study gave.
UniProt Q9UBE8, sequence (whole entry, looked up): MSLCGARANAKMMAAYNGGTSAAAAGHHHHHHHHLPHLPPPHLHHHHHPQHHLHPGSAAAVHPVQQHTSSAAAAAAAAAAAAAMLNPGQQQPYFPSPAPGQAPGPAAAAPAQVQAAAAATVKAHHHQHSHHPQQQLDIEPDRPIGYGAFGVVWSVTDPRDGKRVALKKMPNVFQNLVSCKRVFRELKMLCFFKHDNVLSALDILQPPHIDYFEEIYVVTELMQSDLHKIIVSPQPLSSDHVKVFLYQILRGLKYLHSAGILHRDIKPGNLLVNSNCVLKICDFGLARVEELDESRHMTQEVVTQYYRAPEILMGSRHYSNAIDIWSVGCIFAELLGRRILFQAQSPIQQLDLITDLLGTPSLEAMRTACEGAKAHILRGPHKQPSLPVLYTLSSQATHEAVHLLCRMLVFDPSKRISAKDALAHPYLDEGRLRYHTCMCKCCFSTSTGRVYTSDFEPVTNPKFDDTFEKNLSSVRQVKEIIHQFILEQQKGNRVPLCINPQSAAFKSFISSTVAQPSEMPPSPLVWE
UniProt Q8NFV4, sequence (whole entry, looked up): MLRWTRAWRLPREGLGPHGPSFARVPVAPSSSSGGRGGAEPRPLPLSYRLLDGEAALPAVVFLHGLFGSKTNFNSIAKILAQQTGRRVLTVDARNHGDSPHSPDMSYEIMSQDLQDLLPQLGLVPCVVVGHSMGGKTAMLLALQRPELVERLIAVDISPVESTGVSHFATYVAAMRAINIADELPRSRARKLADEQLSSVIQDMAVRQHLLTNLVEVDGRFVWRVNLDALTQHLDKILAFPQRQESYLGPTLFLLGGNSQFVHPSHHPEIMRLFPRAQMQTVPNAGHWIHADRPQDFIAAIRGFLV

SMILES | tested on | test | test system | setting | how to read | quantity | result
CS(=O)(=O)c1ccc(-c2nnc(/C=C/c3nnc(-c4ccc(C#N)cc4)o3)n2-c2ccccc2Cl)nc1 | – | RNA-seq GSEA, item: HALLMARK_NOTCH_SIGNALING | organoids, small intestinal, Apc Q1405X, mouse | dose not given, knockout organoids | baseline: DMSO, direction not given | normalized enrichment score | -1.36
Cc1cn(-c2cc(NC(=O)c3ccc(C)c(Nc4nccc(-c5cccnc5)n4)c3)cc(C(F)(F)F)c2)cn1 | – | – | human patients | dose not given, 12 to 6 months, caregiver distress | baseline: placebo, direction not given | difference in mean NPI score | 0
O=c1cc(-c2ccccc2)oc2cc(O)c(O)c(O)c12 | – | – | rat plasma 10% | 100 µg/mL, together with: OS 1 µg/mL | – | inhibition of OS hydrolysis | > 50%
CN1CCN(S(=O)(=O)c2cc([N+](=O)[O-])ccc2N(CCOS(C)(=O)=O)CCOS(C)(=O)=O)CC1 | – | – | NSG mice, T-ALL PDX sample F | intraperitoneal, 25 mg/kg, single mouse trial | – | T-C | > 316 days
COc1cc(C(=O)NS(=O)(=O)c2ccccc2C)ccc1Cc1cn(C)c2ccc(NC(=O)OC3CCCC3)cc12 | – | platelet aggregation | human platelet-rich plasma | 10 µM, 180 s, together with: collagen | baseline: DMSO | inhibition | 7%
C[C@]1(CO)Cc2ncn(-c3ccc(C#N)c(Cl)c3)c2C(=O)O1 | – | aldosterone synthesis, inhibitor, item: sodium | healthy Japanese adults, urine | 3 mg, 0-24 h at steady state, multiple rising dose | – | urinary excretion | 153 mmol
O=C(c1ccc(Cl)cc1)N1CCN2C(=O)N(OC(=O)N3CCOc4ccccc43)C(=O)C2C1 (stereo not shown) | ABHD11 (Homo sapiens, UniProt Q8NFV4) | enzyme activity, inhibitor, MS-based ABPP | SW-620 in situ | 10 µM, 2 h, 37 °C | baseline: compound over DMSO, lower = stronger inhibition | median ratio | 1.08
C/C=C1\NC(=O)C(C(C)O)NC(=O)C(CCCN)NC(=O)C(CCO)NC(=O)C(CCN)NC(=O)C(CCN)NC(=O)C(NC(=O)CC(O)CCCCCCCCCCC)COC(=O)C(C(O)CCl)NC(=O)C(C(O)C(=O)O)NC1=O (stereo not shown) | – | calcein leakage | DOPC/DOPG/CHOL liposomes | concentration not given, together with: 40 mM CaCl2 | – | fusion time constant | 52 ± 33 min
C[C@@H](O)[C@@H](CO)NC(=O)[C@@H](CCCNC(=N)N)NC(=O)[C@@H]1CCCN1C(=O)[C@@H]1CSSC[C@H](NC(=O)[C@H](Cc2ccccc2)NC(=O)CN2CCN(CC(=O)O)CCN(CC(=O)O)CCN(CC(=O)O)CC2)C(=O)N[C@@H](Cc2ccc(O)cc2)C(=O)N[C@@H](Cc2ccccc2)C(=O)N[C@@H](CCC(N)=O)C(=O)N[C@@H](CC(N)=O)C(=O)N1 [gallium-68 labelled] | – | – | healthy Wistar rat, kidneys | intravenous, 8 MBq, 120 min, individual animals | – | tissue uptake | 1.73 %ID/g
Cn1cccc1-c1cccnc1 | – | radioligand binding | rat brain | 50 µM, BZP site, PDSP screen | – | inhibition | 32.1%
Nc1ncnc2c1ncn2[C@@H]1O[C@@H]2COP(=O)(O)O[C@H]3[C@@H](O)[C@H](n4cnc5c(=O)[nH]cnc54)O[C@@H]3COP(=O)(O)O[C@H]2[C@H]1O | West Nile virus | RNA sequencing, item: immune system, adaptive, R-HSA-1280218 | HFF-1 cells | concentration not given, upregulated pathway | baseline: WNV-infected untreated cells | fold enrichment | 1.97
C[C@H]1CN(c2n[nH]c3nc(N[C@H]4CC[C@H](NS(=O)(=O)CCC(F)(F)F)CC4)ncc23)CCO1 | NLK (Homo sapiens, UniProt Q9UBE8) | Kinobeads competition | HEK293, K562, placenta lysate | 20 µM, unit not given | baseline: vehicle | remaining binding | 0.13
N.N.O=C([O-])C1(C(=O)[O-])CCC1.[Pt+2] | – | – | mice, OVCAR-4 xenograft | dose not given, up to 110 days | – | survival time | 74.7 days
COc1c(CCC[P+](c2ccccc2)(c2ccccc2)c2ccccc2)cc2c(c1OC)OCO2.[I-] | TK-10 | SRB | – | – | – | LC50 | > -4 log M
CCCCC1(CCCC)CN(c2ccccc2)c2cc(SC)c(OCC(=O)N[C@@H](C(=O)NCC(=O)O)c3ccccc3)cc2S(=O)(=O)C1 | – | item: LDL cholesterol | human, serum | 20 mg once daily, day 11 | – | serum LDL-C | 69.3 mg/dL
COc1ccc(CCC2CCCC(CCc3ccc(OC)cc3)N2C[C@@H](O)CO)cc1.Cl (stereo in doubt) | – | – | rat striatal slices | 1 µM, 30 min, no methamphetamine | – | DOPAC overflow | 93.8 ± 32.2 pg/30 mL/mg
CC(C)CCCCCCCCC[C@@H]1CC(=O)N[C@@H](CCC(=O)O)C(=O)N[C@@H](CC(C)C)C(=O)N[C@H](CC(C)C)C(=O)N[C@@H](C(C)C)C(=O)N[C@@H](CC(=O)O)C(=O)N[C@H](CC(C)C)C(=O)N[C@@H](CC(C)C)C(=O)O1 | – | calcein leakage | DOPC/DOPG/CHOL liposomes | concentration not given, together with: 20 wt% PEG-8000 | – | fusion time constant | 12 ± 3 min
COc1cc2c(Oc3ccc4[nH]c(C)cc4c3F)ccnc2cc1OCC1(N)CC1 | – | – | paediatric recurrent refractory sarcoma | 12 mg | – | grade 3 Vomiting | 0%
COc1cc(CCC[P+](c2ccccc2)(c2ccccc2)c2ccccc2)c(OC)c2c1OCO2.[I-] | ACHN | SRB | – | – | – | TGI | -4.68 log M
C=CC(=O)Nc1cc(Nc2ncc(Cl)c(Nc3ccccc3C(=O)C(=O)N(C)C)n2)c(OC)cc1N1CCN(C)CC1 | – | RECIST v1.1 best response | human EGFR T790M NSCLC | oral, 100 mg/day, per-protocol set | – | patients with partial response | 33.3%
Cc1cn([C@H]2O[C@@H](CO[P@@](=O)(N[C@@H](C)C(=O)OC(C)C)Oc3ccccc3)[C@H](O)[C@H]2F)c(=O)[nH]c1=O | – | – | adults with chronic hepatitis B | 10 mg, day 28 | baseline: baseline | change in HBsAg | -0.11 log10 IU/mL
C[C@H]1O[C@@H](O[C@H]2CC[C@@]3(C)[C@@H](CC[C@]4(C)[C@@H]3C=C[C@]35OC[C@@]6(CCC(C)(C)C[C@H]63)[C@@H](O)C[C@]54C)[C@]2(C)CO)[C@H](O)[C@@H](O[C@@H]2O[C@H](CO)[C@@H](O)[C@H](O)[C@H]2O)[C@H]1O | – | – | mouse, ethanol-fed, hepatic SIRT1 knockdown, plasma | dose not given, 5 h, high dose | – | γ-GT activity | 31.4 U/L and 41.6 U/L and 31.1 U/L and 33.6 U/L and 36.2 U/L
CC(=O)c1c(C)c2cnc(Nc3ccc(C4CCN(CCS(C)(=O)=O)CC4)cn3)nc2n(C2CCCC2)c1=O | – | tumour growth | rat, MCF7 breast cancer model | oral, 80 mg/kg twice daily, 28 days | – | T/C | -56%
COc1cc(Nc2ncc(F)c(Nc3ccc4c(n3)NC(=O)C(C)(C)O4)n2)cc(OC)c1OC | PPP3CA (Homo sapiens, UniProt Q08209) | phosphatase activity, inhibitor | – | – | – | IC50 | > 10 µM
O=C(O)/C=C/C(=O)O.Oc1cccc2[nH]cc(CCNCc3ccccc3)c12 | – | – | C57BL/6J mice | subcutaneous, 10 mg/kg | baseline: pre-session baseline | body temperature change | -0.4 ± 0.2 °C
Cc1cccc(C)c1NC(=O)C1CCCCN1 (stereo not shown) | – | – | Sprague-Dawley rat, male | sciatic nerve injection, 30 mM, 30 min | – | motor block | 14.7 ± 9 % MPE
CC[C@H](C)[C@H](NC(=O)[C@H](Cc1ccccc1)NC(=O)[C@H](CCC(=O)O)NC(=O)[C@H](CCCNC(=N)N)NC(=O)[C@H](C)NC(=O)[C@H](C)NC(=O)[C@H](CCC(N)=O)NC(=O)[C@H](CCC(=O)O)NC(=O)[C@H](CCC(=O)O)NC(=O)[C@H](CC(C)C)NC(=O)[C@H](Cc1ccc(O)cc1)NC(=O)[C@H](CO)NC(=O)[C@H](CO)NC(=O)[C@@H](NC(=O)[C@H](CC(=O)O)NC(=O)[C@H](CO)NC(=O)[C@@H](NC(=O)[C@H](Cc1ccccc1)NC(=O)[C@@H](NC(=O)CNC(=O)[C@H](CCC(=O)O)NC(=O)[C@H](C)NC(=O)CCc1c[nH]cn1)[C@@H](C)O)[C@@H](C)O)C(C)C)C(=O)N[C@@H](C)C(=O)N[C@@H](Cc1c[nH]c2ccccc12)C(=O)N[C@@H](CC(C)C)C(=O)N[C@H](C(=O)N[C@@H](CCCNC(=N)N)C(=O)NCC(=O)N[C@@H](CCCNC(=N)N)C(=O)N[C@@H](CCCCNC(=O)COCCOCCNC(=O)COCCOCCNC(=O)CC[C@H](NC(=O)CCCCCCCCCCCCCCCCC(=O)O)C(=O)O)C(=O)NCC(=O)NCC(=O)N[C@@H](CO)C(=O)N[C@@H](CCCCNc1c(NCCCCCN(O)C(=O)CCC(=O)NCCCCCN(O)C(=O)CCC(=O)NCCCCCN(O)C(C)=O)c(=O)c1=O)C(=O)O)C(C)C [zirconium-89 labelled] | – | – | rat, pancreas | sc, 3 nmol/kg, 72 h, ex vivo | – | tissue uptake | 0.18 %ID/g
CC[C@H](C)[C@@H]1NC(=O)[C@@H]2CCCN2C(=O)[C@H](CC(C)C)NC(=O)[C@H](CC(C)C)NC(=O)CNC(=O)[C@@H](NC(=O)[C@@H](NC(=O)[C@H](CC(=O)O)NC(=O)CNC(=O)[C@@H](NC(=O)[C@H](C)NC(=O)CNC(=O)[C@H](CCCCN)NC(=O)[C@H](CC(C)C)NC(=O)[C@H](CC(C)C)NC(=O)[C@H](CCCCN)NC(=O)CNC(=O)[C@@H](NC(=O)[C@@H](N)CC(C)C)C(C)C)C(C)C)C(C)C)CSSC[C@@H](C(=O)O)NC1=O | – | RNA-seq, item: Tnfrsf1b | mouse, traumatic brain injury model, frontal cortex and hippocampus | dose not given | baseline: TBI alone | log2 fold change | -2.41
